Assay results gathered from unrelated publications.
Every numbered part comes from another study and shows a few of its results, in no order. Substitutions count along the parent as printed.
Chain of UniProt P42336 (whole entry, unmodified, looked up): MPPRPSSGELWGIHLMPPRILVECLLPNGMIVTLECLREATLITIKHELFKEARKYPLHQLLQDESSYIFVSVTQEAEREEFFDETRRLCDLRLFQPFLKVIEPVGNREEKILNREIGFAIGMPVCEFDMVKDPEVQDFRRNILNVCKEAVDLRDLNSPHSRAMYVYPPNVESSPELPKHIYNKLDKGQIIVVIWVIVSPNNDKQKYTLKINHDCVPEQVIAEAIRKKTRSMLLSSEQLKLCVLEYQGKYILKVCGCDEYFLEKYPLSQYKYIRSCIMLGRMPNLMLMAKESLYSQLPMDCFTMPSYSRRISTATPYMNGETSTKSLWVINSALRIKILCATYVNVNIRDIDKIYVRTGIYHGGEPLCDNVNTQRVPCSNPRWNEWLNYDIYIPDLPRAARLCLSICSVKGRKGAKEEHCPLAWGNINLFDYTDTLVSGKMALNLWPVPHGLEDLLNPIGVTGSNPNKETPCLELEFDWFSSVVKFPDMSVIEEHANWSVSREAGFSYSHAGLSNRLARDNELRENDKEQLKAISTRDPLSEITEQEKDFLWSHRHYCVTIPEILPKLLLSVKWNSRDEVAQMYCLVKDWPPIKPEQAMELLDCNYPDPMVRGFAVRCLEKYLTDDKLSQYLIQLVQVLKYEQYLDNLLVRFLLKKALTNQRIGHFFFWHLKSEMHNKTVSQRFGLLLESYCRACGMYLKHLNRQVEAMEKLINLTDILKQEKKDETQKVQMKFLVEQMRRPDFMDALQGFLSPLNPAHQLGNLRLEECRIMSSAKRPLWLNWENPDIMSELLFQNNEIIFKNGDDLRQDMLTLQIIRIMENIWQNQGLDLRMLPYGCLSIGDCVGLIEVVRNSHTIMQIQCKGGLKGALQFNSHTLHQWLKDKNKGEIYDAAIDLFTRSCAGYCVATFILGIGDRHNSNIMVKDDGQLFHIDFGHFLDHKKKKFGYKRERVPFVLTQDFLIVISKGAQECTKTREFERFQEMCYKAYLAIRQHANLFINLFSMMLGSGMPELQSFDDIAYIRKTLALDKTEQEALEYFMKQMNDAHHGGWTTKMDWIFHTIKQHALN
Chain of UniProt Q9UK32 (whole entry, looked up): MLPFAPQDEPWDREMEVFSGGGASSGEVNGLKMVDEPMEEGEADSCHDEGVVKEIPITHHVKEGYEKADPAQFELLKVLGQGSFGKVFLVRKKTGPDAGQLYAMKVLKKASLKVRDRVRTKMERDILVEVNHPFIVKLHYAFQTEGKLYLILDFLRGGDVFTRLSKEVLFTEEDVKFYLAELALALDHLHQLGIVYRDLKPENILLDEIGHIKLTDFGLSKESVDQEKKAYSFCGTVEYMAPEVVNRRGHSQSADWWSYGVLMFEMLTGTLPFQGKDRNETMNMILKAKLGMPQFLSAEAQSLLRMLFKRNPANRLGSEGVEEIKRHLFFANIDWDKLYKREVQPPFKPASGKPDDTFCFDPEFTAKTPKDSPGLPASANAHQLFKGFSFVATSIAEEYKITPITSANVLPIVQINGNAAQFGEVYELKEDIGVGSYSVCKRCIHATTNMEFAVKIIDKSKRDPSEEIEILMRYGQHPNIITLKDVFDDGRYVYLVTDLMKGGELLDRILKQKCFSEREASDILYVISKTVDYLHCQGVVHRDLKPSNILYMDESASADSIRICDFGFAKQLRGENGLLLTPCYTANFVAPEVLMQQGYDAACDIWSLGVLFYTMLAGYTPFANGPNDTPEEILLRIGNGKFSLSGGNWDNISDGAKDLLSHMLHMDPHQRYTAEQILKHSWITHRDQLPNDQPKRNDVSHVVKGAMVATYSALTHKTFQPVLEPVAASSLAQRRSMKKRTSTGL
Chain of UniProt Q8N752 (whole entry, looked up): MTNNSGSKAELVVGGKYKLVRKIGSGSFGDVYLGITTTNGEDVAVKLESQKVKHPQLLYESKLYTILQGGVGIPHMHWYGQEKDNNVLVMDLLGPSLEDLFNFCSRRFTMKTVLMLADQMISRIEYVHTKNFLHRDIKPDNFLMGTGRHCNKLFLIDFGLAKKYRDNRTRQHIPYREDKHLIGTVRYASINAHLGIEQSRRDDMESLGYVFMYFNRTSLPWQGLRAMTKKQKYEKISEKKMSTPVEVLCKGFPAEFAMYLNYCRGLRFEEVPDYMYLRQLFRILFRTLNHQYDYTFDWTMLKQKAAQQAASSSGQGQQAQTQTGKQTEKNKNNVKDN
Chain of UniProt Q6XUX3 (whole entry, looked up): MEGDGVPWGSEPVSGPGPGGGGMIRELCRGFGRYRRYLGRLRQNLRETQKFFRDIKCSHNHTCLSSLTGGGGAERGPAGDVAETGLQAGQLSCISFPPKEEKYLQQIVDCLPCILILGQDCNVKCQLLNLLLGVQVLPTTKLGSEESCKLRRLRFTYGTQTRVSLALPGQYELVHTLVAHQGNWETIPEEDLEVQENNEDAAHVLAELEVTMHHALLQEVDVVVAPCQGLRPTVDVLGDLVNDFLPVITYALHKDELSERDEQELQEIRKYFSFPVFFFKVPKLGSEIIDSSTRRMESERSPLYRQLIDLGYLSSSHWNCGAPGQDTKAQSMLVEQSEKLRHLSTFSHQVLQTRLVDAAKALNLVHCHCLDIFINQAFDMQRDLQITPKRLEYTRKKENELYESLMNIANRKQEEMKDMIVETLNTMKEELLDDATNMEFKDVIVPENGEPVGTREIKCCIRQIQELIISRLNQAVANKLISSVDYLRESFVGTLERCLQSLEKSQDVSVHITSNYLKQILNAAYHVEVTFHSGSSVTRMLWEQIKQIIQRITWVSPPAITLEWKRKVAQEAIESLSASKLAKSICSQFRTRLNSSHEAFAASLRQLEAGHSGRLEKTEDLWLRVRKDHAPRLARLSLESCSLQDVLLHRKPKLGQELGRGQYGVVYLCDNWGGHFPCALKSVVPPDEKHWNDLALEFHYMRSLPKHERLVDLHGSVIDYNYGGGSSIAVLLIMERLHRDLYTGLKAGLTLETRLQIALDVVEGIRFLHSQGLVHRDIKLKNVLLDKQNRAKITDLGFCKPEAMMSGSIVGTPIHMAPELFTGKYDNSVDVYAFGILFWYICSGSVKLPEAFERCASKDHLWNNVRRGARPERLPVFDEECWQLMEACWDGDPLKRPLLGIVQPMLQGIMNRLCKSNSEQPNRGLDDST
Chain of UniProt Q9BVS4 (whole entry, looked up): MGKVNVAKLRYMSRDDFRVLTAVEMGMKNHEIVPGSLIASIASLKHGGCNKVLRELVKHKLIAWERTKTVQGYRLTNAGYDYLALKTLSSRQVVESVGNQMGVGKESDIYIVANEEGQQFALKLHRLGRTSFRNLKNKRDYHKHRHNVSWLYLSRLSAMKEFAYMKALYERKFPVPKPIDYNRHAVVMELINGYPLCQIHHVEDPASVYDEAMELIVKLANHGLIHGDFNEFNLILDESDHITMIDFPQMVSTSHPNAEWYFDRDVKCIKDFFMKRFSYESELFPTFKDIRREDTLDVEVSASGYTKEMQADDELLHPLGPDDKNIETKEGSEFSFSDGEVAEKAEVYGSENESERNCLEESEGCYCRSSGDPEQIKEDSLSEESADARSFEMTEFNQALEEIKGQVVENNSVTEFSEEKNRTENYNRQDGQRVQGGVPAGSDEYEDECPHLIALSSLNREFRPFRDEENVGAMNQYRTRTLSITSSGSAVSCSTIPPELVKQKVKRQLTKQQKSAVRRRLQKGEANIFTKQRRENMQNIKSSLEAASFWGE
Chain of UniProt Q8TDX7 (whole entry, looked up): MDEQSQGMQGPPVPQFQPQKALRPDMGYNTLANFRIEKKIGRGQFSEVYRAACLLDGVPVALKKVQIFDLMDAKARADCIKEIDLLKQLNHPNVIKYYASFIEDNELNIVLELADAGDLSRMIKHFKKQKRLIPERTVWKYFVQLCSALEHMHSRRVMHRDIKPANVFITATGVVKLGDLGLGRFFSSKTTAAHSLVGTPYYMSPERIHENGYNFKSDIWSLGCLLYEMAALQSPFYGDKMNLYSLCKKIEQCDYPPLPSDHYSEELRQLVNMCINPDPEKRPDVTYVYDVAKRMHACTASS

Study 1
Compound: Cn1cncc1[C@@](O)(COc1ccc(C#N)cc1-c1ccc(OC(F)(F)F)cc1)c1ccc(C#N)cc1
Observed: cell-free assay
Technique: competition with immobilised ligand
Tested at: 1 µM
Measurement: remaining binding
Serine/threonine-protein kinase MRCK beta (CDC42BPB, Homo sapiens, UniProt Q9Y5S2): 95%
Mitogen-activated protein kinase 10 (MAPK10, Homo sapiens, UniProt P53779): 75%
Receptor-interacting serine/threonine-protein kinase 4 (RIPK4, Homo sapiens, UniProt P57078): 94%
Serine/threonine-protein kinase Nek7 (NEK7, Homo sapiens, UniProt Q8TDX7): 99%
Cyclin-dependent kinase 3 (CDK3, Homo sapiens, UniProt Q00526): 100%
Ribosomal protein S6 kinase alpha-6, C-terminal kinase domain (RPS6KA6, Homo sapiens, UniProt Q9UK32): 100%
Epidermal growth factor receptor (EGFR, Homo sapiens, UniProt P00533, L858R): 100%
Phosphatidylinositol 4,5-bisphosphate 3-kinase catalytic subunit alpha isoform (PIK3CA, Homo sapiens, UniProt P42336, Q546K): 85%
Ribosomal protein S6 kinase alpha-1, N-terminal kinase domain (RPS6KA1, Homo sapiens, UniProt Q15418): 72%
Mitogen-activated protein kinase kinase kinase 4 (MAP3K4, Homo sapiens, UniProt Q9Y6R4): 80%
Epidermal growth factor receptor (EGFR, Homo sapiens, UniProt P00533, T790M): 68%
Serine/threonine-protein kinase VRK2 (VRK2, Homo sapiens, UniProt Q86Y07): 95%
Dual serine/threonine and tyrosine protein kinase (DSTYK, Homo sapiens, UniProt Q6XUX3): 100%
Serine/threonine-protein kinase RIO2 (RIOK2, Homo sapiens, UniProt Q9BVS4): 100%
Casein kinase I isoform alpha-like (CSNK1A1L, Homo sapiens, UniProt Q8N752): 100%
Activin receptor type-1B (ACVR1B, Homo sapiens, UniProt P36896): 100%
Serine/threonine-protein kinase RIO3 (RIOK3, Homo sapiens, UniProt O14730): 90%

Study 2
SMILES: O=C1CCC(N2Cc3c(ccc4c3OCC43CCN(Cc4ccccc4)CC3)C2=O)C(=O)N1 (stereo not drawn)
Target: CRBN/Zinc finger protein Helios (Homo sapiens, UniProt Q96SW2+Q9UKS7)
Chain of UniProt Q96SW2 (whole entry, looked up): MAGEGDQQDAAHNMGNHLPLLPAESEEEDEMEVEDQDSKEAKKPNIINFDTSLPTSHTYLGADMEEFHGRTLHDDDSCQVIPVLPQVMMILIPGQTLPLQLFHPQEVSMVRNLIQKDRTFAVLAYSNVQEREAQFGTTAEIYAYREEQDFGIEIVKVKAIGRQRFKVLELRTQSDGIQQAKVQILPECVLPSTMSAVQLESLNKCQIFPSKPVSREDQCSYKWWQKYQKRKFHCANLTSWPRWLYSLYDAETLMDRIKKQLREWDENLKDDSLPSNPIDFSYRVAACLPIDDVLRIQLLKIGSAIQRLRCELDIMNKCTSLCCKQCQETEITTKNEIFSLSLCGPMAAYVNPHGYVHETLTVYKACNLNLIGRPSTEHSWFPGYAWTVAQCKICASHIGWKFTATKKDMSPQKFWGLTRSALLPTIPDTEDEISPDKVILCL
Chain of UniProt Q9UKS7 (whole entry, looked up): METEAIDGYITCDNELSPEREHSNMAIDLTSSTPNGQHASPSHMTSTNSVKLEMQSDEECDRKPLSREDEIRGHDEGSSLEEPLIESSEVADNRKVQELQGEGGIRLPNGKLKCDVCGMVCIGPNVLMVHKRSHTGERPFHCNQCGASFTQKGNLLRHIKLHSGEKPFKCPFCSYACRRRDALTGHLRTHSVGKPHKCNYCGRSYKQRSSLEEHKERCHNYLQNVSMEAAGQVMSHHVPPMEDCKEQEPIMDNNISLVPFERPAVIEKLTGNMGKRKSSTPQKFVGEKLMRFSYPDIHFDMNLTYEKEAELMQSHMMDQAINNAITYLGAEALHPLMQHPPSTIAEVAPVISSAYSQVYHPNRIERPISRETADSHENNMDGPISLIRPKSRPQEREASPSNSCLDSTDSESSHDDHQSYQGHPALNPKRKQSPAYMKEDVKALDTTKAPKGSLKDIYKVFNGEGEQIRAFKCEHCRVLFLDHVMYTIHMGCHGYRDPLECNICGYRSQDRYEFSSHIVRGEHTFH
Mode: degrader
Technique: HiBiT
Cells: HEK293
Measurement: protein remaining
370.37 nM, 6 h: 58.7%
3333.33 nM: 35.2%
41.15 nM: 81.4%
41.15 nM, 6 h: 81.4%

Study 3
Target: tungstate, free oxyanion
Technique: microfluidic competitive inhibition
Matrix: in vitro, cell-free expressed
Tested at: not given
Setting: derived from inhibition constants, unchanged parent 2230 nM
Reading: lower = stronger binding
Measurement: oxyanion analog dissociation constant
Starting sequence: PafA, mature enzyme, eGFP fusion (Elizabethkingia meningoseptica, UniProt Q9KJX5); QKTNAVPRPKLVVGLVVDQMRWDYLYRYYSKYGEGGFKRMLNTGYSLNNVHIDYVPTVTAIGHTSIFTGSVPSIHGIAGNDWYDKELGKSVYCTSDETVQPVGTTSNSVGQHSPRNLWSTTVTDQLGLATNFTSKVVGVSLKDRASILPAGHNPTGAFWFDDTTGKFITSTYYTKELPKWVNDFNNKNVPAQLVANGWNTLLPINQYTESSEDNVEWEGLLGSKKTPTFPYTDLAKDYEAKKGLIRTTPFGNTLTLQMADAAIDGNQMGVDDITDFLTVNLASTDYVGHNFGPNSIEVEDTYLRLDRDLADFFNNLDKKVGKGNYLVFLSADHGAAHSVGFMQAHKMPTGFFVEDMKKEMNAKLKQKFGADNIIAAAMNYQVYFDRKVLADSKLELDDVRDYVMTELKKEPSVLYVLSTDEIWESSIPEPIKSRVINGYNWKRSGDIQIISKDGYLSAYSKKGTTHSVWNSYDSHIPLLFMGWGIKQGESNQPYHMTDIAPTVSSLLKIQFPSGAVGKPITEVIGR
A261V: 2.36 µM
K367V: 2.71 µM
N314V: 2.17 µM
E86G: 1.76 µM
G251V: 1.73 µM
P430G: 1.66 µM
L364G: 1.82 µM
E522V: 6.49 µM

Single results of other studies
CCCNS(=O)(=O)c1ccc(OCC(=O)N2CCN(Cc3ccc4c(c3)OCO4)CC2)c(C)c1 — remaining compound (human, microsomes or S9; 2 µM, 0.5 h): 16%
Oc1cccc2cccnc12 — viability (A-375; 100 µM, 36 h): 41.1%
COc1cc2c(cc1O)C(CCc1ccc(Cl)cc1)N(C)CC2 (stereo not drawn) — nuclei count (mouse MPNST tumor cells; high-content nuclear imaging, refers to: cell number; 10 µM, 12 h, mean of 2 replicates; baseline: plate mean, higher = more cells): 0.0715 z-score
C=CCN1C(=O)C(=Cc2ccc(OCC(=O)O)cc2)C(=O)N=C1O — inhibition (His6 tag; AlphaScreen counter screen; concentration not given): 3%
NC(=O)C[S+]([O-])C(c1ccccc1)c1ccccc1 (stereo not drawn) — viability (A-375; 100 µM, 36 h): 102%
O=C(Nc1ccc2[nH]ncc2c1)c1cc(N2CCNCC2)c(F)cc1F — remaining compound (human, microsomes or S9; 2 µM, 0.5 h): 69.8%
C[C@H]1CCC/C=C/[C@@H]2C[C@H](O)C[C@H]2[C@H](O)/C=C/C(=O)O1 — nuclei count (mouse MPNST tumor cells; high-content nuclear imaging, refers to: cell number; 10 µM, 12 h, mean of 2 replicates; baseline: plate mean, higher = more cells): -5.62 z-score
C[C@]12CC[C@@H](O)C[C@@H]1CC[C@@H]1[C@@H]2CC[C@]2(C)C(=O)CC[C@@H]12 — remaining activity (DNA polymerase theta, ATPase domain (POLQ, Homo sapiens, UniProt O75417); enzyme activity, inhibitor; 77 µM; baseline: untreated): 103%
CCN1CCN(C(=O)Cc2ccc(Nc3ncc(F)c(Nc4ccc(C(=O)Nc5ccccc5Cl)cc4)n3)cc2)CC1 — nuclei count (mouse MPNST tumor cells; high-content nuclear imaging, refers to: cell number; 10 µM, 12 h, mean of 2 replicates; baseline: plate mean, higher = more cells): -4.69 z-score
O=C1NC(=O)N(c2ccccc2)C(=O)C1=CNc1ccc(F)cc1 — inhibition (His6 tag; AlphaScreen counter screen; concentration not given): 3.05%

Excerpt of the above (study 1):
Serine/threonine-protein kinase MRCK beta (CDC42BPB, Homo sapiens, UniProt Q9Y5S2): 95%
Mitogen-activated protein kinase 10 (MAPK10, Homo sapiens, UniProt P53779): 75%
Receptor-interacting serine/threonine-protein kinase 4 (RIPK4, Homo sapiens, UniProt P57078): 94%
Serine/threonine-protein kinase Nek7 (NEK7, Homo sapiens, UniProt Q8TDX7): 99%
Cyclin-dependent kinase 3 (CDK3, Homo sapiens, UniProt Q00526): 100%
